Measured values of several laboratories.
Parts stem from different laboratories: compare values within a part only. Changes are numbered by the printed parent chain.

Series 1 — technique: DHFR PCA, deep sequencing; matrix: yeast; added: (+)-ABA 58 µM; relative to: wild-type fitted maximum; reading: higher = stronger binding
Target: ABI1, truncated, D143A, DHFR fusion (Arabidopsis thaliana)
Setting: methotrexate growth selection, single substitutions
Starting sequence: PYL1, truncated, DHFR fusion (Arabidopsis thaliana); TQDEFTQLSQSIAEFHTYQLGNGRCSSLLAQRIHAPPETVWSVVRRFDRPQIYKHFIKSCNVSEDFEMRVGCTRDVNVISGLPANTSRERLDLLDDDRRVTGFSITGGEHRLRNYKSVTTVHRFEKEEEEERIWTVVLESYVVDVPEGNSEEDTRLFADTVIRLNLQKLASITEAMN; partner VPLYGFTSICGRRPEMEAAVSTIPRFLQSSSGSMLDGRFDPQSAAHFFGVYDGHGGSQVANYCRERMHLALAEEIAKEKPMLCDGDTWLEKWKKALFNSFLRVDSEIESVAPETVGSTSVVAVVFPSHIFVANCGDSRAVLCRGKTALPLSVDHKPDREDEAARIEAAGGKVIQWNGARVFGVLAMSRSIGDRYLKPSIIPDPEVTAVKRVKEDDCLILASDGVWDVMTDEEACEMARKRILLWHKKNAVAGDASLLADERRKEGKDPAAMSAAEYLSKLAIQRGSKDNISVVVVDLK
| Substitution | relative binding score [%] |
| --- | --- |
| P83R | 1.47 |
| E128M | 91.5 |
| T6L | 89 |
| C25H | 27.1 |
| L28R | 68.4 |
| R163G | 70.6 |
| E67K | 82.3 |
| P146S | 40.3 |
| C60N | 2.16 |
| R69V | 87.1 |
| R46C | 82.7 |
| V40E | -9.73 |

Series 2 — technique: protein-binding microarray; molecule type: double-stranded DNA, one strand shown; matrix: in vitro; concentration: 2540 nM top; setting: 60-bp whole probe; added: salmon DNA 0.4 mg/ml; relative to: random background probes; reading: higher = stronger binding; constant ends, left off below: GCCTAGCAC … GTCTTGATTCGCTTGACGCTGCTG
Target: Interferon regulatory factor 3, full length, phosphomimetic (IRF3, Homo sapiens, UniProt Q14653, residues 1-427, S386D/S396D/S398D/S402D/T404D/S405D)
Target sequence (chain): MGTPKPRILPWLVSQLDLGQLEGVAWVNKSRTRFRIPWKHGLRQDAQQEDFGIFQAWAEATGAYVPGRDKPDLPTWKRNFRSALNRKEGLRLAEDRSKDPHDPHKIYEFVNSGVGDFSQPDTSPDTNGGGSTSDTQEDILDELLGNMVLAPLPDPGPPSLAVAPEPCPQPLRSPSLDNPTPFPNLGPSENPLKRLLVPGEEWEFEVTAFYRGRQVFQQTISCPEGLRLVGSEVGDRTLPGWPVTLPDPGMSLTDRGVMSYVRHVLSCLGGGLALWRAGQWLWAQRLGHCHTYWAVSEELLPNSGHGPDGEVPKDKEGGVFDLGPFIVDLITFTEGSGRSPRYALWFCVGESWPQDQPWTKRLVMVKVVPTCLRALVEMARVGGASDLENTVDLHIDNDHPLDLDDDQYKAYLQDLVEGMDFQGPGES
| Sequence | fitted relative affinity |
| --- | --- |
| CACGAACTGAGTTTCGAGACGTGCTAG | 1.29 z-score |
| GACGGTTTCGGTTCCGCGACGTGCTAG | 10 z-score |
| GACGGACTGCTTTTCATGACGTGCTAG | -0.0572 z-score |
| GTAGGTATCGGTTTCGGTTAGTGCTAG | 8.8 z-score |
| GACGAACTGAGTTGCGAGACGTGCTAG | 0.256 z-score |
| TAAGGTTCCGGTTTCGGTTAGTGCTAG | 8.07 z-score |
| ATCTTTTTCCTAATTGAACCGTGCTAG | 3.78 z-score |
| TTAGGACTGCTTATGCTTTAGTGCTAG | -0.563 z-score |
| TTAGATTTCAGATCCGATTAGTGCTAG | 2.85 z-score |
| TCATGTTTCTTCTGCTGACTGTGCTAG | 0.581 z-score |
| AACGAACTGAGTTTCGAGACGTGCTAG | 1.43 z-score |
| CTCTACATGTGTTTAAGAATGTGCTAG | -0.0371 z-score |
| ATAGGACTGGGGTTTCGGTTAGTGCTA | 2.61 z-score |
| TCAGGTTAAAATTTTGCACTGTGCTAG | 0.1 z-score |
| TGGCACCTCTAGACTCTAAATGTGCTA | -0.92 z-score |
| TTAGGATTGGACACTGGGTTAGTGCTA | -0.53 z-score |
| GACCGTATCCTTCTCCTGACGTGCTAG | 6.51 z-score |
| TTATATTTCGGGTATCGATTAGTGCTA | 1.24 z-score |
| GACGCTCTCCTACTGCTGACGTGCTAG | 0.401 z-score |

Series 3 — target: CCNE1, cyclin fold, Cln2 fusion (human); technique: yeast growth competition, sequencing; matrix: yeast; setting: strong parent motif; relative to: not given; reading: higher = stronger binding
Starting sequence: CDKN1A docking peptide (human); SKACRRLFGPVDS
| Substitution | normalised enrichment score |
| --- | --- |
| C4F | 0.704 |
| F8W | 3.83 |
| D12F | 3.28 |
| F8M | 0.333 |
| K2G | 6.23 |
| A3V | 6.15 |
| R6Q | 5.33 |
| P10K | 3.95 |
| D12L | 3.65 |
| A3H | 3.1 |
| L7Y | 0.623 |
| V11T | 6.14 |
| P10N | 5.42 |
| K2M | 5.02 |
| R5S | 0.033 |
| V11R | 4.43 |
| D12K | 3.82 |
| G9E | 5.94 |
| P10I | 3.83 |
| K2S | 5.68 |
| G9K | 3.34 |
| L7A | -0.0877 |
| S13A | 5.49 |
| P10Y | 4.32 |
| V11F | 5.73 |

Series 4 — technique: universal PBM; molecule type: double-stranded DNA, one strand shown; matrix: in vitro; concentration: 600 nM; reading: higher = stronger binding
Target: Sal-like protein 4, full length isoform A (SALL4, Homo sapiens, UniProt Q9UJQ4, residues 1-1053)
Sequence of UniProt Q9UJQ4 (whole entry, looked up): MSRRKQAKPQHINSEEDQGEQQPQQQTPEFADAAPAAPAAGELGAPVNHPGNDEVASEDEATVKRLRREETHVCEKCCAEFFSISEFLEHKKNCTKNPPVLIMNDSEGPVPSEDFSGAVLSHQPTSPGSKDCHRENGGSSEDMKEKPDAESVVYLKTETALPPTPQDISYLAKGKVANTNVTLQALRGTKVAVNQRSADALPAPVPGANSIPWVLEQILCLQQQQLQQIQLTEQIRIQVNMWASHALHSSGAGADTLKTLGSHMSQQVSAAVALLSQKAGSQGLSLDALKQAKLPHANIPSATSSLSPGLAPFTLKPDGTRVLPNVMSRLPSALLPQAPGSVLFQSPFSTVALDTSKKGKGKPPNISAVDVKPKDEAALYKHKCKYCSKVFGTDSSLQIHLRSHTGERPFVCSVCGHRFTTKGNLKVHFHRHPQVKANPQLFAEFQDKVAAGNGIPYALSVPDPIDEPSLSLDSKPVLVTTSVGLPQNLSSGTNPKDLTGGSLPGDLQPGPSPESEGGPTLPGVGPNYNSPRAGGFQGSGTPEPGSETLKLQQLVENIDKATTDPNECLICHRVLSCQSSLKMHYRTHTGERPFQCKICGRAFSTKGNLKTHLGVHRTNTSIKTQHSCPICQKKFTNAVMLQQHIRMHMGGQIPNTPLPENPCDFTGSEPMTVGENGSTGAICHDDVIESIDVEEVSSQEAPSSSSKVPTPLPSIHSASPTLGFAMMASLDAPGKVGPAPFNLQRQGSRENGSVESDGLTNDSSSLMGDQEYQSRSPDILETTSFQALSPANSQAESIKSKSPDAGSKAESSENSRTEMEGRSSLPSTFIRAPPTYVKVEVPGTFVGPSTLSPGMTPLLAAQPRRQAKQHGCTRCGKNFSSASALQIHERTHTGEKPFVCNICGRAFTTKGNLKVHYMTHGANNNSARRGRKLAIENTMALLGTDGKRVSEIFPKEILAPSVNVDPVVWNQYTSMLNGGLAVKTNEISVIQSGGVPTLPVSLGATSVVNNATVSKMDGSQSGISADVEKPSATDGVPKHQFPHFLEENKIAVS
Setting: 8-mer, flanks averaged, mean of replicates
| Sequence | E-score |
| --- | --- |
| CGCGGAAC | -0.18 |
| CCCGGAGA | -0.275 |
| CCTGACAC | -0.0954 |
| ACTCCGAA | -0.167 |
| GCCCAGCC | -0.346 |
| CATCTCCG | -0.105 |
| AGCGGCTG | -0.239 |
| TAGCAAGA | 0.185 |
| CCAACCCG | -0.341 |
| CGGGGACA | -0.274 |
| ATCCCGGG | -0.298 |
| GGCCGACA | -0.253 |
| ACTTTTAT | 0.281 |
| CGAGCTAG | -0.0491 |
| AACGAGCA | -0.0141 |
| CCCAGCAC | -0.25 |
| CAAGGCAG | -0.0987 |
| ACGGACAT | -0.0483 |
| GGTTGTTA | 0.161 |
| ACCAGAGA | 0.0504 |
| ACTGATTG | -0.0348 |
| GCGTAGGA | -0.196 |
| GCAAGCAC | -0.137 |
| AAACAGCT | -0.0613 |
| CGGACGGC | -0.307 |

Series 5 — technique: competition protein-binding microarray; molecule type: double-stranded DNA, one strand shown; matrix: in vitro; concentration: 2 µM; added: Pho4 competitor, 0.05 µM; reading: higher = stronger binding; constant ends, left off below: … GTCTTGATTCGCTTGACGCTGCTG
Target: Centromere-binding protein 1, full length, His-tagged (CBF1, Saccharomyces cerevisiae, UniProt P17106, residues 1-351)
Sequence of UniProt P17106 (whole entry, looked up): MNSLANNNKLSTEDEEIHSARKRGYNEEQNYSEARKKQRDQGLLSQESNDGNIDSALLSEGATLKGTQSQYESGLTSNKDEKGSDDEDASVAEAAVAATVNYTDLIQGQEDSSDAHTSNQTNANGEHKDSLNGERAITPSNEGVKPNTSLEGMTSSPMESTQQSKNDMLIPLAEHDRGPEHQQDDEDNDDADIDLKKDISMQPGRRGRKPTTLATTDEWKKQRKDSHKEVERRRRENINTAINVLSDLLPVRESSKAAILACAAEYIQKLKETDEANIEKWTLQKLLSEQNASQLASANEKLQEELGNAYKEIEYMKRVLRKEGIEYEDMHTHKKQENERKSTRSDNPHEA
Setting: whole 60-bp probe, lowest competitor level
| Sequence | fluorescence intensity |
| --- | --- |
| CATACCCAACCTTTTCACGTGGACTAAGATATTTGT | 1010 a.u. |
| CCTCGGAAAAACCTCCACGTGTTGGGTTATTCCGCC | 1230 a.u. |
| AGAATCAAAGCTCACCACGTCATAGTTGCGAAAGCC | 93.4 a.u. |
| AAAGCGGTAATTTGGTGCGTGGGTGCAGATATCTAT | 72.1 a.u. |
| GAACAGTGCCTGCACCTCGTGTATCGCGATGCGGAG | 82.3 a.u. |
| AAAGCGGTAATTTGACCGGTGGGTGCAGATATCTAT | 57 a.u. |
| AAGATATATGAATAGGACGTGTCGGTAGAACTAGTA | 72.2 a.u. |
| AAGGCAATCAGGATGCACGTCGCCGTAAGATTGCAA | 69.1 a.u. |
| ATGGACCCGCATAGAAACGTGAGACTGAGAGGATAT | 122 a.u. |
| AAATTACTAAGTTGGACAGTGGGTGACGCCGTATGA | 63.9 a.u. |
| CCATTGTACGGTTCGTACGTGGGTACAATGAATTAC | 71.9 a.u. |
| GGAGCCCTTGCACTCCACGTGGCCTGCCTCCCTGGG | 444 a.u. |
| CTCCGGCGGCCATTTTACGTGACGGAGCATCCCTTA | 61.8 a.u. |
| AATATTGGCCTTTTGCACGTTCGCGACTAAACGAGT | 112 a.u. |
| ACTGCAGTAATTCTCCACATGGGCCCAGCCACTGAG | 76.4 a.u. |
| TGCGCAACAACTTGCGATGTGGGTGTATGTCTAGAA | 61.7 a.u. |
| AAATTACTAAGTTGGATCGTGGGTGACGCCGTATGA | 63.9 a.u. |
| CTTCTGTAAATTTGTCACTCAACTTGACGCGCCCCG | 74 a.u. |
| CCTTTGAAACGTACCCACGCATTTGCTAAAGAAAAA | 66.7 a.u. |
| GTCTTGTCTCATTGACTGGTGGGTGTCCCCACTTCA | 87.6 a.u. |
| CATACCCAACCTTGTGATGTGGGTGAAGATATTTGT | 83.3 a.u. |
| CATACCCAACCTTTTCACGTGGGATAAGATATTTGT | 866 a.u. |
| TCGACTACTCAGTCGGACGTGGCCGTTCAGAAGGTG | 61.2 a.u. |
| CTTGCCATACCTTCACACGGGGTTCTTTGAGGCACT | 84.7 a.u. |
| CCGTCTACAACTCGGCACGCAAGTAGTCCGCCTAGC | 66.1 a.u. |

Series 6 — target: DDIT3, bZIP domain (human); technique: DHFR protein complementation; matrix: yeast; relative to: wild-type JUN-FOS pair; reading: higher = stronger binding
Setting: single substitutions, most at no-binding floor
Starting sequence: JUN, bZIP domain (human); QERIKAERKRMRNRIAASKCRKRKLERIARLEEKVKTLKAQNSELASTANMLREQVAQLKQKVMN; partner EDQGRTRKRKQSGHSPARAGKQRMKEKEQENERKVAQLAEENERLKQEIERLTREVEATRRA
| Substitution | binding fitness [natural log] |
| --- | --- |
| E44T | -0.0835 |
| S43C | 0.0104 |
| K39H | -0.046 |
| I28Y | -0.0436 |
| S47V | 0.123 |
| L31M | -0.0979 |
| K36S | 0.00746 |
| S47T | 0.0507 |
| L45N | -1.09 |
| N42C | -0.982 |
| T37N | 0.0965 |
| T37A | 0.135 |
| A40C | -0.142 |
| A40Y | -0.213 |
| L38I | -0.945 |
| E44G | -0.351 |
| R53G | -0.776 |
| T37V | 0.0865 |
| L38H | -1.21 |
| E33R | -0.0531 |
| S47D | 0.12 |

Excerpt of the above (series 3):
| Substitution | normalised enrichment score |
| --- | --- |
| V11R | 4.43 |
| L7A | -0.0877 |
| F8M | 0.333 |
| K2S | 5.68 |
| A3H | 3.1 |
| P10Y | 4.32 |
| K2G | 6.23 |
| D12L | 3.65 |
| G9K | 3.34 |
| G9E | 5.94 |
| R5S | 0.033 |
| P10K | 3.95 |
| D12F | 3.28 |
